Results gathered from unrelated publications.
Numbered parts are unrelated; each lists some results of a single study.

Study 1
Target: Interferon regulatory factor 5, full length, phosphomimetic (IRF5, Homo sapiens, UniProt Q13568-2, residues 1-514, K96S/S451D/S453D/S456D/S462D)
Method: protein-binding microarray
Molecule type: double-stranded DNA, one strand shown
Medium: in vitro
Concentration: 250 nM
Notes: 60-bp whole probe
Together with: salmon DNA 0.4 mg/ml
Reference: random background probes
Direction: higher = stronger binding
Quantity: log fluorescence
Constant ends, left off below: GCCTAGCAC … GTGCTAGGTCTTGATTCGCTTGACGCTGCTG
AATCAACTTTTTTTAATTGA: 0.962 z-score
TTACGTTTCCTTATCCTTTA: 1.8 z-score
GACGGACTGGGTATCGGGAA: 0.531 z-score
GACGGTATCGCTTTCGGGAC: 6.92 z-score
TTAGAACTGAATCTCGATTA: 0.429 z-score
TTAGAACTGGGTCTCGGTTA: 0.11 z-score
TTAGGTTTCGGGCTGGGTTA: 6.59 z-score

Study 2
Target: Fragile X messenger ribonucleoprotein 1, C-terminal low-complexity region (Fmr1, Mus musculus, UniProt P35922)
Method: RNA Bind-n-Seq
Molecule type: RNA
Medium: in vitro
Concentration: 200 nM
Notes: whole 134-nt RNA, ends assumed
Together with: 150 mM KCl
Reference: input library
Direction: higher = stronger binding
Quantity: log2 enrichment
Constant ends, left off below: GGGAGUUCUACAGUCCGACGAUC … UGGAAUUCUCGGGUGUCAAGG
CUCAAGUCCUGUGCUACACAUCGUAUGUACCGAAUCGGGGAGGGGAGGGAGGGAAAGUAUUAUGUUACGCCGUUCGGAUCUGCACUUCCA: 1.18
ACCAUGCAGGUGGGCAUCUUUGGGAAGUGGGGCAAGGGGGGGAUAGGGAGGGGGGUAACACUUUGGGAUCAGGUGGUCCCAGGUCGUUUC: 0.546
UCAAGUCCUGUGCUACACAUCGUAUGUACCGAAUCGGUUUGGAGGUUUUUUUGGAAAGUAUUAUGUUACGCCGUUCGGAUCUGCACUUCC: -0.392
CUCAAGUCCUGUGCUACACAUCGUAUGUACCGAAUCGGUUGGUUGGGGUUGGGGAAAGUAUUAUGUUACGCCGUUCGGAUCUGCACUUCC: -0.077
CAAGUCCUGUGCUACACAUCGUAUGUACCGAAUCGGGUUUGGGUUUUUGGGAGGGAAAGUAUUAUGUUACGCCGUUCGGAUCUGCACUUC: 1.09
CUGUGCUACACAUCGUAUGUACCGAAUCGGGGAAAAAAGGGGAAAAAAGGGGAAAAAAGGGAAAGUAUUAUGUUACGCCGUUCGGAUCUG: -0.318

Study 3
Target: Centromere-binding protein 1, full length, N-terminal tag (CBF1, Saccharomyces cerevisiae, UniProt P17106, residues 1-351)
UniProt P17106, sequence (whole entry, looked up): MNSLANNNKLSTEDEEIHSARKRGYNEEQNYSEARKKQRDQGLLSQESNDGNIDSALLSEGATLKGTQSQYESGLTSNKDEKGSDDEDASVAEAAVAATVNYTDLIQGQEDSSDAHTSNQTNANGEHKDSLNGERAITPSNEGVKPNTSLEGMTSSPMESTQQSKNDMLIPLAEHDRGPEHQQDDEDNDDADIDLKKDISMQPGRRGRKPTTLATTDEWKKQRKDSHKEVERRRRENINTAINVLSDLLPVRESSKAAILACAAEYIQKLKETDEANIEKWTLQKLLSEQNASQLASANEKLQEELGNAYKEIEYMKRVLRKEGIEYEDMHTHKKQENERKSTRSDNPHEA
Method: protein-binding microarray
Molecule type: double-stranded DNA, one strand shown
Medium: in vitro
Concentration: 0.8 µM
Notes: whole 60-bp probe, no competitor
Direction: higher = stronger binding
Quantity: fluorescence intensity
Constant ends, left off below: … GTCTTGATTCGCTTGACGCTGCTG
CTATTAATGATTACGCATGTGGATGTGTTCAGTTTC: 550 a.u.
GAAGAAGCTTCTCTCCACATGTCCTTTATATTTTAG: 592 a.u.
GAAACTTTTAAAGTTAACATCACCGCTGAATTATAG: 496 a.u.
CTATTTGTTTCTGAGATCGTGACCTTAGATTGTTTC: 1610 a.u.
CTACAAATATAAGATCACGCTATACTATCAATGTTC: 1160 a.u.

Further values, each from its own experiment
PhoQ, residues 284 288 289 292 302 303 TGYLSA
fold induction (PhoP, residues 12 14 15 18 19 NYFTV (Escherichia coli, UniProt P23836); Sort-seq, measured: YFP reporter; E. coli; PhoQ-PhoP variant library, together with: 10 µM Mg2+; reference: high Mg2+ state, higher = stronger signaling): 10.7
